Assay results gathered from unrelated publications.
Protocols differ between the studies behind these lines. Values joined by “and” are separate records of one study, mostly repeats; a detail may differ. ± gives the spread as reported.
DDB1- and CUL4-associated factor 7: DDB1- and CUL4-associated factor 7 (Homo sapiens, UniProt P61962)
Sequence of UniProt P61962 (whole entry, looked up): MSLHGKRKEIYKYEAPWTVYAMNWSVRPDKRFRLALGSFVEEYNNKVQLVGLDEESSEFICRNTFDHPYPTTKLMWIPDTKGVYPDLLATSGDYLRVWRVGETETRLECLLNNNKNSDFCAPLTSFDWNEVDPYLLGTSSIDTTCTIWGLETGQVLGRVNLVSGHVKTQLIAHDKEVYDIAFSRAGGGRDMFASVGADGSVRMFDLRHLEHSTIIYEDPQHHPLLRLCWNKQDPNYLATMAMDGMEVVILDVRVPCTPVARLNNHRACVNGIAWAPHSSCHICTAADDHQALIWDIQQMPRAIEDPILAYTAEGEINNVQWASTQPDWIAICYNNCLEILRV
Aryl hydrocarbon receptor: Aryl hydrocarbon receptor (Danio rerio, UniProt Q9YGV3)
SET: Protein SET (SET, Homo sapiens, UniProt Q01105)
Sequence of UniProt Q01105 (whole entry, unmodified, looked up): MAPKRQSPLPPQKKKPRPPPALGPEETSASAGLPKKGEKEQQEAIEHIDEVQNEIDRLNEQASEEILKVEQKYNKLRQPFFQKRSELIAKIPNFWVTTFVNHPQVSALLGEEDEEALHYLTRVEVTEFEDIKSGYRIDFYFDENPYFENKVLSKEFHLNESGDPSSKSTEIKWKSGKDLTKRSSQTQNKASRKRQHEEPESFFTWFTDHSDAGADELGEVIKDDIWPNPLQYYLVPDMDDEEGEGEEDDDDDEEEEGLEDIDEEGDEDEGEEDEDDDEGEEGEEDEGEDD
Sequence of UniProt O76090 (whole entry, unmodified, looked up): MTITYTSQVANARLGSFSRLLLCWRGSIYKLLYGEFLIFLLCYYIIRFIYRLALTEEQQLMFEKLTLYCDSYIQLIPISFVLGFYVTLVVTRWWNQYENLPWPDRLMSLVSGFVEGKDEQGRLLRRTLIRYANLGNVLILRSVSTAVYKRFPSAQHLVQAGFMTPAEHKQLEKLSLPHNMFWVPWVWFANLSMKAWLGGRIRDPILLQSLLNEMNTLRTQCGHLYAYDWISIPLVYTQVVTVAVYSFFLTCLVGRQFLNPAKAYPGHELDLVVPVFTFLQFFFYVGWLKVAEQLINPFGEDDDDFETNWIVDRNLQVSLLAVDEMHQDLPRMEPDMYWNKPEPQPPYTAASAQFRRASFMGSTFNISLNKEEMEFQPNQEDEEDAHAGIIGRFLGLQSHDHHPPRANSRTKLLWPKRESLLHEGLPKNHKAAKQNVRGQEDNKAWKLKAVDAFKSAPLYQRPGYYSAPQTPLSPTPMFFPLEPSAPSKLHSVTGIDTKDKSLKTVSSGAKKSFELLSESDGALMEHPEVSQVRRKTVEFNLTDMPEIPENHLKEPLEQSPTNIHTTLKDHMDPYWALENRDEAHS
Sequence of UniProt Q13133 (whole entry, looked up): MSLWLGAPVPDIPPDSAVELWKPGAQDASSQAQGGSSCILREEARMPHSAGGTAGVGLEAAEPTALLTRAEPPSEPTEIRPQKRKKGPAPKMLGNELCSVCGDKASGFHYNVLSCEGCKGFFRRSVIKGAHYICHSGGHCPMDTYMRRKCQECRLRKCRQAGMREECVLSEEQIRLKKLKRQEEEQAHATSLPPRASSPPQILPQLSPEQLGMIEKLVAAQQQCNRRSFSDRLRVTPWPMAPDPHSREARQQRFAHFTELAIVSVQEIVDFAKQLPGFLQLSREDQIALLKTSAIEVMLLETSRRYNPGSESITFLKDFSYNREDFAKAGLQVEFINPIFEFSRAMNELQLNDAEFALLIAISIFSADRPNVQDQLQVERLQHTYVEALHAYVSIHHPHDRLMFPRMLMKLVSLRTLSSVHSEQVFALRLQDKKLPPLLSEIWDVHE
Sequence of UniProt P11388 (whole entry, looked up): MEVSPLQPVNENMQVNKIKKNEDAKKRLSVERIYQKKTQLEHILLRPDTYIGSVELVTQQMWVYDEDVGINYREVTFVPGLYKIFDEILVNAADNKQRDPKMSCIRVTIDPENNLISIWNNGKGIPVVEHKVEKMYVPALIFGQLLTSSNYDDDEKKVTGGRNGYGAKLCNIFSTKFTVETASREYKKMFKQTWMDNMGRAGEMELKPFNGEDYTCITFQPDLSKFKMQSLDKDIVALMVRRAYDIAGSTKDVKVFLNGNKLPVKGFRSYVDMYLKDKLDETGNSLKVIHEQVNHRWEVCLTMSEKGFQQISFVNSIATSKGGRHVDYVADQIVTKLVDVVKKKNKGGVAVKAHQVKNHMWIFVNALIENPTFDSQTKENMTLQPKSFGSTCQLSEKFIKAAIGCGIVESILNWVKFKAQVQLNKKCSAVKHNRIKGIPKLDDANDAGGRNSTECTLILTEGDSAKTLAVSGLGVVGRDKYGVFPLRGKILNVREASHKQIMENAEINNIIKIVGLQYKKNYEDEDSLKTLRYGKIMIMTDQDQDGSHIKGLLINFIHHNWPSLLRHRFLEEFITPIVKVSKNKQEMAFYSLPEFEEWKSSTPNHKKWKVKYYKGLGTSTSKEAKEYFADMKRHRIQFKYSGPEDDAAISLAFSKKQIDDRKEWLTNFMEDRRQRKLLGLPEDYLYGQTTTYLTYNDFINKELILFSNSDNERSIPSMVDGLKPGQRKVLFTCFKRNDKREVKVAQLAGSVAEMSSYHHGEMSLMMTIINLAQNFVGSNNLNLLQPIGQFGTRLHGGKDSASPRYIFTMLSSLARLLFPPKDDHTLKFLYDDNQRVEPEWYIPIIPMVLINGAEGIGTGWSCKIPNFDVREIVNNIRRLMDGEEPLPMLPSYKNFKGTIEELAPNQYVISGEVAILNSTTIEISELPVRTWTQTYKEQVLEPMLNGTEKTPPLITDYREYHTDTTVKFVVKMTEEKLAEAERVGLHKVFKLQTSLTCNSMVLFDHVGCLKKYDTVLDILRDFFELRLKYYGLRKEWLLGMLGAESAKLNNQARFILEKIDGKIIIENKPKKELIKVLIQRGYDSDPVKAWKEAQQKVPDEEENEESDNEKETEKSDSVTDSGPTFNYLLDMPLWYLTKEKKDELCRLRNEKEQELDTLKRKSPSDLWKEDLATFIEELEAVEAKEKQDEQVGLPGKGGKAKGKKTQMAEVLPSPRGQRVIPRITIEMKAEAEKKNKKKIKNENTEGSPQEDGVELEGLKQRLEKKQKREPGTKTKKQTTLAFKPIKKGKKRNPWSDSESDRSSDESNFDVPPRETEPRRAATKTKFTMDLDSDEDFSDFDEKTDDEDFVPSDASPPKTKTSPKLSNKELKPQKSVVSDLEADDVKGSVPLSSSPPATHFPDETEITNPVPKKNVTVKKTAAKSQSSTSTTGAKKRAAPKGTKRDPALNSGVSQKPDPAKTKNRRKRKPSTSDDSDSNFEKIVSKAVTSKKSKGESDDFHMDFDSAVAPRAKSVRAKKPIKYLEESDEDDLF
Sequence of UniProt P00441 (whole entry, unmodified, looked up): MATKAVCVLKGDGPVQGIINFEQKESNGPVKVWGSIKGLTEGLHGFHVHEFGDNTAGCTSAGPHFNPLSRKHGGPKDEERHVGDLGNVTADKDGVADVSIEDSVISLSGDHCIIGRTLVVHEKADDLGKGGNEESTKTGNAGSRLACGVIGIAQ
Sequence of UniProt P00519 (whole entry, unmodified, looked up): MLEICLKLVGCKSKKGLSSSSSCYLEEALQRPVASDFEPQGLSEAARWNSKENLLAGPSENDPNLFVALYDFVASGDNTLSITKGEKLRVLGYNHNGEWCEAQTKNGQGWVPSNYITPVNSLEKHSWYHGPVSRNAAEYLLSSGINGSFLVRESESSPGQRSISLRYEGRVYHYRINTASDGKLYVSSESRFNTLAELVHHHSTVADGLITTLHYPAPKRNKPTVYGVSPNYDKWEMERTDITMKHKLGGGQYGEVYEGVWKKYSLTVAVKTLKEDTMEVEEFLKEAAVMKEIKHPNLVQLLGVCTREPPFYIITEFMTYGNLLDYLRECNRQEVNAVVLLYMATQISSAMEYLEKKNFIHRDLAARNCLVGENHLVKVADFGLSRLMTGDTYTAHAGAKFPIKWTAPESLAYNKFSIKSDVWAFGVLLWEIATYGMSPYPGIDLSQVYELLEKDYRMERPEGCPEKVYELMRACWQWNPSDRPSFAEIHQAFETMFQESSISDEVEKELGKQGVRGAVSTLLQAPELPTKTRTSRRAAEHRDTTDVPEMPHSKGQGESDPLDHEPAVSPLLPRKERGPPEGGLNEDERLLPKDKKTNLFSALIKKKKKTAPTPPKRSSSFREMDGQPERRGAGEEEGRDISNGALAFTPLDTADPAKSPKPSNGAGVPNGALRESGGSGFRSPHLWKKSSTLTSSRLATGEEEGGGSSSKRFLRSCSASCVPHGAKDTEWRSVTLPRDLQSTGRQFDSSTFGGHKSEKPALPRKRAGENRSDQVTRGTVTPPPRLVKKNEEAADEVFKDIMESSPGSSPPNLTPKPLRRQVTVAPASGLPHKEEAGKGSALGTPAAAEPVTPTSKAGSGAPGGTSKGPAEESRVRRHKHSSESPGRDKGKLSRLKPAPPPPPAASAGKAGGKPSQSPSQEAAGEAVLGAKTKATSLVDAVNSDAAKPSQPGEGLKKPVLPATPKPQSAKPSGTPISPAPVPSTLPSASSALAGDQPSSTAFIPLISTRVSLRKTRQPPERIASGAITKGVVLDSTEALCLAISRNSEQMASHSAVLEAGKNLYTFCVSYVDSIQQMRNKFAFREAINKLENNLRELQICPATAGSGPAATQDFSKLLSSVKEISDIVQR
Sequence of UniProt P62813 (whole entry, looked up): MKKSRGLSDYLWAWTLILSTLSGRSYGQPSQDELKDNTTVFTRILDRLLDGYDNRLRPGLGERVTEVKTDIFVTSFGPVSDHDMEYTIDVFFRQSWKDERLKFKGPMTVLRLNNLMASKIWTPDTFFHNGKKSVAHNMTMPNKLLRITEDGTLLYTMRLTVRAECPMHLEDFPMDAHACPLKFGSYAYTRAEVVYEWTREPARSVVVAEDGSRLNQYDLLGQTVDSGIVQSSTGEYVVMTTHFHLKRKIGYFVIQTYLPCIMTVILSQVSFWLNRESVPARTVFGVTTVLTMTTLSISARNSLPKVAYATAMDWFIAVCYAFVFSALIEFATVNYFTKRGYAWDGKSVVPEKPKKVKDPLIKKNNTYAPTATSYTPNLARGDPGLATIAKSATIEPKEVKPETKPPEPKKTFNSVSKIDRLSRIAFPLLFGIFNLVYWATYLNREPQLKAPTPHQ

| SMILES | target | assay | test system | setting | how to read | endpoint | result |
| --- | --- | --- | --- | --- | --- | --- | --- |
| Cc1ncsc1-c1ccc(CNC(=O)[C@@H]2C[C@@H](O)CN2C(=O)[C@@H](NC(=O)C2(F)CC2)C(C)(C)C)c(OCCOCCOCCN2CCN(c3cc(-c4ccccc4O)nnc3N)CC2)c1 | VHL-ElonginB-ElonginC complex human | ternary complex formation, fluorescence polarization |  | with: SMARCA4 bromodomain |  | cooperativity factor | 14 |
| CC[C@]1(O)C[C@@H]2CN(CCc3c([nH]c4ccccc34)[C@@](C(=O)OC)(c3cc4c(cc3OC)N(C)[C@H]3[C@@](O)(C(N)=O)[C@H](O)[C@]5(CC)C=CCN6CC[C@]43[C@@H]65)C2)C1 | GABA-A receptor; alpha-1/beta-2/gamma-2 (Rattus norvegicus, UniProt P18508+P62813+P63138) | membrane potential, agonist, QP-DHM primary screen | HEK293 expressing GABAA | 10 µM | direction not given | normalized score | 0.322 |
| O=C(COP(=O)(O)O)[C@@H](O)[C@H](O)[C@H](O)COP(=O)(O)O | Nucleolar protein 56 (Homo sapiens, UniProt O00567) | thermal proteome profiling, item: NOP56 | HepG2 cell lysate | concentration not given, 57 over 37 °C, mean | relative to: compound over control | thermal stability ratio | 0.555 |
| Cc1cccc(N2CC(C(=O)O)CC2=O)c1 (stereo not drawn) | DDB1- and CUL4-associated factor 7 | binding, affinity selection mass spectrometry |  |  | relative to: other proteins in batch | log fold enrichment | -0.102 |
| O=C1C=CC(=O)c2c1ccc1ccccc21 | Aryl hydrocarbon receptor | reporter gene, agonist, luciferase reporter | ZF-4 | 13.72 µM | relative to: vehicle control | fold change | 4.04 |
| CC[C@@H]1[C@H](F)C(=O)N[C@@H]1COc1nccc2cc(C(N)=O)c(OC)cc12 | Ribosomal protein S6 kinase alpha-2 (RPS6KA2, Homo sapiens, UniProt Q15349) | ATP-site probe binding, ActivX profiling, item: RSK3 | THP-1 cell lysate | 0.01 mM, Lys2 site |  | inhibition | -10.4% |
| CC[C@H](C)[C@@H]1NC(=O)[C@H](C)NC(=O)[C@H]([C@@H](C)CC)NC(=O)[C@H](CCC(N)=O)NC(=O)[C@H](C)NC(=O)[C@H](CCCNC(=N)N)NC(=O)[C@H](C(C)C)NC(=O)[C@H](CC(C)C)NC(=O)[C@H](CCC(=O)O)NC(=O)[C@H](CCCNC(=N)N)NC(=O)CNC(=O)[C@@H](NC(=O)[C@H](CC(C)C)NC(=O)[C@H](CCCCN)NC(=O)[C@@H](NC(=O)[C@@H](NC(=O)[C@H](CCC(=O)O)NC(=O)[C@H](CCC(=O)O)NC(=O)[C@H](CCSC)NC(=O)[C@H](Cc2c[nH]c3ccccc23)NC(=O)[C@H](CO)NC(=O)[C@@H](N)CC(=O)O)C(C)C)[C@@H](C)CC)CSSC[C@@H]2NC(=O)[C@@H](NC(=O)[C@H](CCCCN)NC(=O)[C@H](CC(N)=O)NC(=O)[C@H](C)NC(=O)[C@H](CC(C)C)NC(=O)[C@H](C)NC(=O)[C@H](CO)NC(=O)[C@H](Cc3ccc(O)cc3)NC(=O)[C@H](CC(C)C)NC(=O)[C@H](CCC(N)=O)NC(=O)c3ccc(-c4c5ccc(=[N+](C)C)cc-5oc5cc(N(C)C)ccc45)c(C(=O)[O-])c3)CSSC[C@H](NC(=O)CNC(=O)[C@H](C(C)C)NC(=O)[C@H](Cc3c[nH]cn3)NC2=O)C(=O)N[C@@H]([C@@H](C)O)C(=O)N[C@@H](CCCCN)C(=O)N[C@@H](CCCNC(=N)N)C(=O)N[C@@H](CO)C(=O)N[C@@H](CC(C)C)C(=O)N[C@@H](C)C(=O)N[C@@H](CCCNC(=N)N)C(=O)N[C@@H](Cc2ccccc2)C(=O)N[C@H](C(=O)O)CSSC[C@@H](C(=O)NCC(=O)N[C@@H](CCSC)C(=O)N[C@@H](CO)C(=O)N[C@H](C(=O)N[C@@H](Cc2c[nH]c3ccccc23)C(=O)N[C@@H](CO)C(=O)O)[C@@H](C)O)NC1=O | Relaxin receptor 1 (RXFP1, Homo sapiens, UniProt Q9HBX9, F76A/Y80A) | NanoBRET dissociation |  | infinite dilution, with: 10 nM relaxin |  | koff slow phase | 0.000972 s⁻¹ |
| Cn1c2c(c3ccccc31)C(C#N)C(C)(C)NC2=O (stereo not drawn) | Serine/threonine-protein kinase VRK3 (VRK3, Homo sapiens, UniProt Q8IV63) | thermal stability, thermal shift |  | 10 µM | higher = stronger binding | delta Tm | 0 °C |
| CCCCCCCCCCCCC/C=C/[C@@H](O)[C@H](CO)NC(=O)CCCCCCCCCCCCCCCCCCCCCCC | Protein SET (SET, Homo sapiens, UniProt Q01105, K222D) | lipid binding, GFP pull-down LC-MS/MS | A549 overexpressing GFP-tagged protein |  | relative to: eluate plus flow-through | lipid fraction bound | 2.8% |
| O=C(O)[C@@H]1CCCN1c1ncnc2[nH]cnc12 (racemic) | DDB1- and CUL4-associated factor 7 | binding, affinity selection mass spectrometry |  |  | relative to: other proteins in batch | fold enrichment | 0.87 |
| Cc1ccc2ccc3ccc(C)cc3c2c1 | Aryl hydrocarbon receptor (AHR, Homo sapiens, UniProt P35869) | reporter gene, agonist, yeast LacZ reporter | Saccharomyces cerevisiae |  |  | maximum response | 47.9 LacZ units |
| Nc1ccc2ccc3cccc4ccc1c2c34 | Aryl hydrocarbon receptor | reporter gene, agonist, luciferase reporter | ZF-4 | 10000 µM | relative to: vehicle control | fold change | 1.35 |
| CCCCCCCC(=O)c1cc(OC)c(OC)c(OC)c1CC(=O)OCC | Oxysterols receptor LXR-alpha (NR1H3, Homo sapiens, UniProt Q13133) | reporter gene, Gal4 hybrid reporter |  | 10 µM | relative to: vehicle | activation | 0.59 fold |
| NCCCCC(=O)O | Sodium- and chloride-dependent taurine transporter (SLC6A6, Homo sapiens, UniProt P31641, Y138A) | binding, microscale thermophoresis |  | 37.6 nM, fitted curve | higher = more binding | fraction bound | 0 |
| [O-][S+]1CCCCS1 (stereo not drawn) | Superoxide dismutase [Cu-Zn] (SOD1, Homo sapiens, UniProt P00441, G94A) | intact protein LC-MS | SOD1 G93A transgenic mice, whole blood | intravenous, 10 mg/kg, 12 h |  | target engagement | 42% and 40.9% |
| CN(C)c1nccc(-c2cnn3ncccc23)n1 | Tyrosine-protein kinase ABL1 (ABL1, Homo sapiens, UniProt P00519, F317I) | KINOMEscan |  | 1 µM | relative to: control | remaining binding | 100% and 57% |
| C[C@H](CCC(C)(C)O)[C@H]1CC[C@H]2[C@@H]3CC=C4C[C@@](C)(O)CC[C@]4(C)[C@H]3CC[C@]12C | Glutamate NMDA receptor; GRIN1/GRIN2B (GRIN1/GRIN2B, Homo sapiens, UniProt Q05586+Q13224, L650A) | positive allosteric modulator, two-electrode voltage clamp | Xenopus oocytes expressing GluN2B-L650A | 10 µM, 0.02% cremophor, with: 100 µM glutamate and glycine | relative to: without compound | current response | 103 ± 2.8% |
| c1coc(-c2n[nH]cc2-c2ccnc3ccccc23)c1 | pH-response regulator protein palF/RIM8 (RIM8, Candida albicans, UniProt Q9UW13) | kinase binding, MIB/MS competition | Candida albicans lysate | 10 µM | relative to: DMSO, negative = stronger binding | log2 fold change | -0.1 |
| CCCCCCCCCCCCC/C=C/[C@@H](O)[C@H](CO)NC(=O)CCCCCCCCCCCCCCC | SET | lipid binding, GFP pull-down LC-MS/MS | A549 overexpressing GFP-tagged protein | ER-targeted construct | relative to: eluate plus flow-through | lipid fraction bound | 12.3% |
| N#Cc1ccc(C[C@@H](Nc2c(Nc3ccc(Br)cc3)c(=O)c2=O)C(=O)N2CCc3ccccc32)cc1 | N-formyl peptide receptor 2 (FPR2, Homo sapiens, UniProt P25090) | cell-based |  | concentration not given |  | activity | inactive |
| CCCCc1nc2c(N)nc3ccccc3n2n1 | Toll-like receptor 8 (TLR8, Homo sapiens, UniProt Q9NR97) | reporter gene, agonist, NF-κB reporter | HEK-Blue TLR8 |  |  | EC50 | inactive |
| O=c1nc(SCc2cc(F)cc(C(F)(F)F)c2)nc(SCc2ccc3nc(Cl)ccc3c2)[nH]1 | DNA topoisomerase 2-alpha (TOP2A, Homo sapiens, UniProt P11388) | ATPase activity |  | 7.8 µM, with: ATP 2 mM |  | ATP hydrolysis rate | 0.342 µM/min and 2.52 µM/min |
| O=C(O)c1ccc(Nc2ncc3c(n2)-c2ccc(Cl)cc2C(c2c(F)cccc2F)=NC3)cc1 | human cKit(h) | kinase activity |  | 1 µM |  | remaining activity | 91% |
| CN(CCCCCCNC(=O)COc1ccc(C2CCC(=O)NC2=O)cc1)Cc1cn(Cc2ccc(C(=O)NO)cc2)c2ccccc12.O=C(O)C(F)(F)F (stereo not drawn) | Protein deacetylase HDAC6 (HDAC6, Homo sapiens, UniProt Q9UBN7) | degrader, western blot | MM1.S | 1 µM, 24 h |  | degradation | 96% |
| Nc1ccc(C(=O)O)cc1 | BEST1, with wild-type BEST1 (Homo sapiens, UniProt O76090, L234P) | ion current, whole-cell patch clamp | HEK293 co-expressing mutant and wild-type | concentration not given, voltage 20 mV |  | current density | 3.97 pA/pF and 10.8 pA/pF and 1.69 pA/pF and 3.19 pA/pF and 5.61 pA/pF and 2.73 pA/pF |
| CCCCCCCCCCCCC/C=C/[C@@H](O)[C@H](CO)NC(=O)CCCCCCCCCCCCCCCCCCC | SET | lipid binding, GFP pull-down LC-MS/MS | A549 overexpressing GFP-tagged protein |  | relative to: eluate plus flow-through | lipid fraction bound | 18.2% |
| CC(=O)OCc1nn(C)c2nc(N)[nH]c(=O)c2c1=O | Dihydropteroate synthase (folP, Bacteria, UniProt P0AC13) | CETSA HiBiT | whole cells |  |  | melting temperature | 66 °C |
